{"data": "Experimental data pooled from the literature", "note": "Parts stem from different laboratories: compare values within a part only.", "UniProt Q92918, sequence (whole entry, looked up)": "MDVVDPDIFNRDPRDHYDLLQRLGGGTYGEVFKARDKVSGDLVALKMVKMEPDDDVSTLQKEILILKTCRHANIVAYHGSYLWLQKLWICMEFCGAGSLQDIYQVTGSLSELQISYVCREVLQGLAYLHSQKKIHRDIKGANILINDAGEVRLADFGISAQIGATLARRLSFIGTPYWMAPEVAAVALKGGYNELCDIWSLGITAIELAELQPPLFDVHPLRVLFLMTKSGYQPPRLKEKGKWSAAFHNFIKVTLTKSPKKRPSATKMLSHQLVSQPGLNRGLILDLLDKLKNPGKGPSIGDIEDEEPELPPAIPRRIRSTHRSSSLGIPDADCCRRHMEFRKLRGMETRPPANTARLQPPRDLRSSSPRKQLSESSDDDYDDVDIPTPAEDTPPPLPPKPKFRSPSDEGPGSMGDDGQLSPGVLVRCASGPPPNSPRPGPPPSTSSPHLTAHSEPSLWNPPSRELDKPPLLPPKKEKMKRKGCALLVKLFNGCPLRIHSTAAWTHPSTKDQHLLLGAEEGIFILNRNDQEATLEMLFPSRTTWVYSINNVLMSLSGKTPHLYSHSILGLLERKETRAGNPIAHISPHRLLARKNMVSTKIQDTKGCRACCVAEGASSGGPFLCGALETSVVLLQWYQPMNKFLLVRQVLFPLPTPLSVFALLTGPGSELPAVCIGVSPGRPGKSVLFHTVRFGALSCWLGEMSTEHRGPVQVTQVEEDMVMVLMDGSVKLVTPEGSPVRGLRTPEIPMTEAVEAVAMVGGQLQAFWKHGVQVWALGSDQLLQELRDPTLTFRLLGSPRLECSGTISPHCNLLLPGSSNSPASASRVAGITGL", "UniProt Q05397, sequence (whole entry, looked up)": "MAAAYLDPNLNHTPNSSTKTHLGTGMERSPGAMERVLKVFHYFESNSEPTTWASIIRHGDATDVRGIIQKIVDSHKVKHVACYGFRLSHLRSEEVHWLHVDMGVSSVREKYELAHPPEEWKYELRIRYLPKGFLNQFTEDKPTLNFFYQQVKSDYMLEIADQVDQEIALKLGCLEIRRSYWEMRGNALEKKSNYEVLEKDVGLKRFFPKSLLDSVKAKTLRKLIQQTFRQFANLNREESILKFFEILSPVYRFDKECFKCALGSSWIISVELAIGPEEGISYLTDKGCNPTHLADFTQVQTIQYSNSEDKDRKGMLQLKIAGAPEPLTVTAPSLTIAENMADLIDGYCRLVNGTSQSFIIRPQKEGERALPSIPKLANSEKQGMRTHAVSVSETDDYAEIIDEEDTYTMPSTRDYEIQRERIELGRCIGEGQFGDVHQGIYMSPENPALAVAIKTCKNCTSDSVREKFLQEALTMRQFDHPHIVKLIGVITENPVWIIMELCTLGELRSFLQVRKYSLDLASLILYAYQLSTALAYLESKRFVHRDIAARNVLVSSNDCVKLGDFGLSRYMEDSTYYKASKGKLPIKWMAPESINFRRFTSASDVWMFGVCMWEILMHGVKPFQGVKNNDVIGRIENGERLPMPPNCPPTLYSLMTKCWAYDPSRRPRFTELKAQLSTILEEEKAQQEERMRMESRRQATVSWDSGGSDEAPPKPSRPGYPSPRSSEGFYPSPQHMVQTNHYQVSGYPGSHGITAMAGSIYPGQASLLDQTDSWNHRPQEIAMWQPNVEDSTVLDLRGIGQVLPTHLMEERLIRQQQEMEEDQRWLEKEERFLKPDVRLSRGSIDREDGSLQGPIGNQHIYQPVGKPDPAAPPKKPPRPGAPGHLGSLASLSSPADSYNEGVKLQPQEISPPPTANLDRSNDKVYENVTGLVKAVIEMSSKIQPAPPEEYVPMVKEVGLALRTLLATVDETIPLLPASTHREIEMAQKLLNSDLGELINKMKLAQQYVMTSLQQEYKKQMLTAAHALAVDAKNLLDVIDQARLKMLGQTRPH", "UniProt P49674, sequence (whole entry, looked up)": "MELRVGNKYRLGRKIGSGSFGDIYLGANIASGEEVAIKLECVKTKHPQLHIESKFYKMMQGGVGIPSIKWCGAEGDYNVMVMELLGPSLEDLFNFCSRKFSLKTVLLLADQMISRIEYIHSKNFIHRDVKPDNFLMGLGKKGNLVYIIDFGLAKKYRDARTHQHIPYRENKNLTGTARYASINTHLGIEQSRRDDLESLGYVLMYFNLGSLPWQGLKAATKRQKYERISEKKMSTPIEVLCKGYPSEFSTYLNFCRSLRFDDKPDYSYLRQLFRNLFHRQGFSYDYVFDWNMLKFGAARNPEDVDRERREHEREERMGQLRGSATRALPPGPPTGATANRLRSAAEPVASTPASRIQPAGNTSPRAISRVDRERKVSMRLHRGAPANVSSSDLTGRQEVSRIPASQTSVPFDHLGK", "UniProt Q9H422, sequence (whole entry, looked up)": "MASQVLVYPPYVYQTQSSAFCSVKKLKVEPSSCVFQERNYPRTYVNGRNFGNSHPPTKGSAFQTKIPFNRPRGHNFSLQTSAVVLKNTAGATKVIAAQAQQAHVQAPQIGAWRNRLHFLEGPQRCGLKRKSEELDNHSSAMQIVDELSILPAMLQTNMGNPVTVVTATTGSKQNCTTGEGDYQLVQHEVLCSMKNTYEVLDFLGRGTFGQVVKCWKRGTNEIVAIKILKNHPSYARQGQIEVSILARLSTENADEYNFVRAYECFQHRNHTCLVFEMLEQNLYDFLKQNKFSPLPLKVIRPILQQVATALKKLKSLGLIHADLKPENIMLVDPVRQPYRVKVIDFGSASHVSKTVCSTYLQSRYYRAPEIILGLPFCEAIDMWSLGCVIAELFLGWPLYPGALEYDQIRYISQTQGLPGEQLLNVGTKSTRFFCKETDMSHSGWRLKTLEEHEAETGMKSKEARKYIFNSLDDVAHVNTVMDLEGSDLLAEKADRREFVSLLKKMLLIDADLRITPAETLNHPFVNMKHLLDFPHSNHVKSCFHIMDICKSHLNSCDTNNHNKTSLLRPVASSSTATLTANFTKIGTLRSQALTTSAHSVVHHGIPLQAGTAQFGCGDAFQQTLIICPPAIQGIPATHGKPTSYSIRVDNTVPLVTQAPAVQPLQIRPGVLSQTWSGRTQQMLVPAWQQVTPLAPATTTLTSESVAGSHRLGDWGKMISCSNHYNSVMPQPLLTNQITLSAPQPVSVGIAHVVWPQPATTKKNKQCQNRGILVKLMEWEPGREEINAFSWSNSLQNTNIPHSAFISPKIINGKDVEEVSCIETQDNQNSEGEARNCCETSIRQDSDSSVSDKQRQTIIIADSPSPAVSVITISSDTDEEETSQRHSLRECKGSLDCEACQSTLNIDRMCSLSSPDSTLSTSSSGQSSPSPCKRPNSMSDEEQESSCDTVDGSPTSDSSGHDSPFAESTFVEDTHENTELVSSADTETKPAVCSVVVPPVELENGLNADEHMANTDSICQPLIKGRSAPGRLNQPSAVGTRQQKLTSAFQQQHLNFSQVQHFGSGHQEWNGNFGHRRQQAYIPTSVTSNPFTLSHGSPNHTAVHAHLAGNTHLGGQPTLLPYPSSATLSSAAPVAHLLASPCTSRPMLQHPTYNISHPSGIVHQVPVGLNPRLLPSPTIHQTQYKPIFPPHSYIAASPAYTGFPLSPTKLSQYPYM", "UniProt Q15835, sequence (whole entry, looked up)": "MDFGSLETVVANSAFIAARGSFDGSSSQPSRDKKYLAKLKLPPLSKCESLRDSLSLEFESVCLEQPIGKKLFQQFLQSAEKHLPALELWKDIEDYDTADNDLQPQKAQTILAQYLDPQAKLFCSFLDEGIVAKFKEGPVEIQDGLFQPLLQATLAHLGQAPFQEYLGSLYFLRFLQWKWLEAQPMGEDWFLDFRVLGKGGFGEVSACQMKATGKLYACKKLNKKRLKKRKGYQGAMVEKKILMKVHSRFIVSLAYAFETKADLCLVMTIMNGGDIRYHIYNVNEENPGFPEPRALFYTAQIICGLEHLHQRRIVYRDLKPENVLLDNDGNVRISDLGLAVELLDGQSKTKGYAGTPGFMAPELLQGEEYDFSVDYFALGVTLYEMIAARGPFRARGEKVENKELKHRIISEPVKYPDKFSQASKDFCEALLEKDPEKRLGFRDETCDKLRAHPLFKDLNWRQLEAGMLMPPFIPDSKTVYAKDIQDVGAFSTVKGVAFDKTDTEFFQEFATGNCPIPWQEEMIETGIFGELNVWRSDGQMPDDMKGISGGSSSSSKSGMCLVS", "UniProt P36894, sequence (whole entry, looked up)": "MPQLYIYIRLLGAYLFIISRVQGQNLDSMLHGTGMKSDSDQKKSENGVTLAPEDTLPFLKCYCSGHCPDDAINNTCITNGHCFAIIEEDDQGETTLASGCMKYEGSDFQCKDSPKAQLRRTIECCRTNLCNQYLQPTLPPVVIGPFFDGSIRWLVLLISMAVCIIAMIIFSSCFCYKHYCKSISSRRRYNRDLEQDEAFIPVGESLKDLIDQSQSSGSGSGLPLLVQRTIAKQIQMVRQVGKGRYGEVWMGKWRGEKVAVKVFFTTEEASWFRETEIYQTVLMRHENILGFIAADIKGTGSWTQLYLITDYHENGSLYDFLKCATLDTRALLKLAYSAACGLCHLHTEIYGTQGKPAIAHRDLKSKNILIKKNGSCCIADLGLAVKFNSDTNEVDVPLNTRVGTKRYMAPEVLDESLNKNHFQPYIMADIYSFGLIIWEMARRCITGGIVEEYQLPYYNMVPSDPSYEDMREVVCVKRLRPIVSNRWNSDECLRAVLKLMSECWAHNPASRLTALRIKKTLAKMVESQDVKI"}
{"data": "Study 1", "target": "Cyclin-dependent kinase 3, with cyclin E (CDK3, Homo sapiens, UniProt Q00526)", "effect on": "enzyme activity", "action": "inhibitor", "concentration": "0.5 µM", "relative to": "control", "UniProt Q00526, sequence (whole entry, looked up)": "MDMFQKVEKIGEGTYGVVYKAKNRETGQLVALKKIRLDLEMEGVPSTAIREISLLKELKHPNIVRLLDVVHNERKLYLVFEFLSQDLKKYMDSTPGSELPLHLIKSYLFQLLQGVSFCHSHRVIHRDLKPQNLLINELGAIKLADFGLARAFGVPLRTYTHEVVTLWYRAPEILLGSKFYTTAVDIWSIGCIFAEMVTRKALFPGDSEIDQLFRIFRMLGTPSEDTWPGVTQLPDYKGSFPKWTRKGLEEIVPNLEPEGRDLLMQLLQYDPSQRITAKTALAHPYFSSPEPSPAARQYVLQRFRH"}
{"SMILES": "Oc1ccc(-c2nc(-c3ccncc3)c(-c3ccc(F)cc3)[nH]2)cc1", "remaining activity [%]": 96.7}
{"SMILES": "Nc1ccc2ncnc(NCCc3ccc(Oc4ccccc4)cc3)c2c1", "remaining activity [%]": 94.8}
{"SMILES": "COc1ccc(OC)c2c(=S)c3ccccc3[nH]c12", "remaining activity [%]": 87.7}
{"SMILES": "OCC(O)CCON=C1C(c2c(O)[nH]c3ccccc23)=Nc2ccccc21 (centres unmarked)", "remaining activity [%]": 65.2}
{"SMILES": "O=C(O)c1ccc2c3c1cccc3c(=O)n1c3ccccc3nc21", "remaining activity [%]": 97.9}
{"SMILES": "Cc1ccc(NC(=O)c2ccc(CN3CCN(C)CC3)cc2)cc1Nc1nc(-c2cccnc2)cs1", "remaining activity [%]": 90.2}
{"SMILES": "O=C(CCCc1ccc(-c2ccccc2F)cc1)Nc1ccc(O)cc1", "remaining activity [%]": 92.6}
{"SMILES": "CC(C)[C@H](CO)Nc1nc(Nc2cc(N)cc(Cl)c2)c2ncn(C(C)C)c2n1", "remaining activity [%]": 31.9}
{"SMILES": "O=C(Nc1cccc(Nc2cc(Nc3cccc(C(F)(F)F)c3)ncn2)c1)C1CC1", "remaining activity [%]": 94.8}
{"SMILES": "N#CC(C#N)=C(N)/C(C#N)=C/c1ccc(O)cc1", "remaining activity [%]": 96.8}
{"SMILES": "Cc1cccc(-c2[nH]c(C(C)(C)C)nc2-c2ccc3c(c2)OCO3)n1", "remaining activity [%]": 97.6}
{"SMILES": "COc1cc2ncnc(Nc3ccc(Oc4ccccc4)cc3)c2cc1OC", "remaining activity [%]": 98.5}
{"SMILES": "Nc1ncnc2n[nH]c(Nc3ccc(F)cc3)c12", "remaining activity [%]": 104}
{"SMILES": "NCCNc1ncc(C(N)=O)c(Nc2cccc(C(F)(F)F)c2)n1", "remaining activity [%]": 95.3}
{"SMILES": "COc1ccc(CNC(=O)Nc2ncc([N+](=O)[O-])s2)cc1", "remaining activity [%]": 94.8}
{"data": "Study 2", "Compound": "Nc1c(C(=O)NCc2ccc(C(=O)NCCCC3CCCCC3)cc2)cnn1-c1ccccc1", "technique": "competition with immobilised ligand"}
{"target": "Myosin light chain kinase, smooth muscle (MYLK, Homo sapiens, UniProt Q15746)", "test": "cell-free assay", "conditions": "0.1 µM", "remaining binding [%]": 68}
{"target": "cAMP-dependent protein kinase catalytic subunit alpha (PRKACA, Homo sapiens, UniProt P17612)", "test": "cell-free assay", "conditions": "0.1 µM", "remaining binding [%]": 100}
{"target": "Tyrosine-protein kinase ABL1, non-phosphorylated (ABL1, Homo sapiens, UniProt P00519, T315I)", "test": "cell-free assay", "conditions": "0.1 µM", "remaining binding [%]": 100}
{"target": "Interleukin-1 receptor-associated kinase 3 (IRAK3, Homo sapiens, UniProt Q9Y616)", "test": "cell-free assay", "conditions": "0.1 µM", "remaining binding [%]": 94}
{"target": "Cyclin-G-associated kinase (GAK, Homo sapiens, UniProt O14976)", "test": "cell-free assay", "conditions": "0.1 µM", "remaining binding [%]": 100}
{"target": "Rhodopsin kinase GRK1 (GRK1, Homo sapiens, UniProt Q15835)", "test": "cell-free assay", "conditions": "0.1 µM", "remaining binding [%]": 100}
{"target": "Mast/stem cell growth factor receptor Kit (KIT, Homo sapiens, UniProt P10721)", "test": "binding", "conditions": "1 µM", "remaining binding [%]": 45}
{"target": "Serine/threonine-protein kinase ULK1 (ULK1, Homo sapiens, UniProt O75385)", "test": "cell-free assay", "conditions": "0.1 µM", "remaining binding [%]": 100}
{"target": "Casein kinase I isoform epsilon (CSNK1E, Homo sapiens, UniProt P49674)", "test": "cell-free assay", "conditions": "0.1 µM", "remaining binding [%]": 98}
{"target": "MAP kinase-interacting serine/threonine-protein kinase 1 (MKNK1, Homo sapiens, UniProt Q9BUB5)", "test": "cell-free assay", "conditions": "0.1 µM", "remaining binding [%]": 82}
{"target": "Tyrosine-protein kinase Srms (SRMS, Homo sapiens, UniProt Q9H3Y6)", "test": "cell-free assay", "conditions": "0.1 µM", "remaining binding [%]": 100}
{"target": "Homeodomain-interacting protein kinase 3 (HIPK3, Homo sapiens, UniProt Q9H422)", "test": "cell-free assay", "conditions": "0.1 µM", "remaining binding [%]": 100}
{"target": "Myosin-IIIa (MYO3A, Homo sapiens, UniProt Q8NEV4)", "test": "cell-free assay", "conditions": "0.1 µM", "remaining binding [%]": 100}
{"target": "Focal adhesion kinase 1 (PTK2, Homo sapiens, UniProt Q05397)", "test": "cell-free assay", "conditions": "0.1 µM", "remaining binding [%]": 99}
{"target": "Calcium/calmodulin-dependent protein kinase kinase 2 (CAMKK2, Homo sapiens, UniProt Q96RR4)", "test": "cell-free assay", "conditions": "0.1 µM", "remaining binding [%]": 100}
{"target": "Tyrosine-protein kinase ABL1, non-phosphorylated (ABL1, Homo sapiens, UniProt P00519, F317L)", "test": "cell-free assay", "conditions": "0.1 µM", "remaining binding [%]": 100}
{"target": "Mitogen-activated protein kinase kinase kinase kinase 1 (MAP4K1, Homo sapiens, UniProt Q92918)", "test": "cell-free assay", "conditions": "0.1 µM", "remaining binding [%]": 99}
{"target": "Serine/threonine-protein kinase B-raf (BRAF, Homo sapiens, UniProt P15056, V600E)", "test": "cell-free assay", "conditions": "0.1 µM", "remaining binding [%]": 100}
{"target": "Bone morphogenetic protein receptor type-1A (BMPR1A, Homo sapiens, UniProt P36894)", "test": "cell-free assay", "conditions": "0.1 µM", "remaining binding [%]": 100}
{"target": "RAC-gamma serine/threonine-protein kinase (AKT3, Homo sapiens, UniProt Q9Y243)", "test": "cell-free assay", "conditions": "0.1 µM", "remaining binding [%]": 78}
{"target": "Receptor-type tyrosine-protein kinase FLT3 (FLT3, Homo sapiens, UniProt P36888, F691L/ITD)", "test": "cell-free assay", "conditions": "0.1 µM", "remaining binding [%]": 73}
{"data": "Study 3", "organism": "Sarcocystis neurona", "effect on": "parasite growth", "concentration": "10 µM", "time": "96 h", "notes": "second screen", "relative to": "untreated"}
{"SMILES": "CC(C)n1c(/C=C/C(O)CC(O)CC(=O)O)c(-c2ccc(F)cc2)c2ccccc21 (centres unmarked)", "log2 fold change": 0.49}
{"SMILES": "C=CC1=C(C(=O)O)N2C(=O)[C@@H](NC(=O)/C(=N\\O)c3csc(N)n3)[C@H]2SC1", "log2 fold change": 0.13}
{"SMILES": "CC(C)c1nc(CN(C)C(=O)N[C@H](C(=O)N[C@@H](Cc2ccccc2)C[C@H](O)[C@H](Cc2ccccc2)NC(=O)OCc2cncs2)C(C)C)cs1", "log2 fold change": -0.18}
{"SMILES": "CCn1cc(C(=O)O)c(=O)c2cc(F)c(N3CCNCC3)cc21", "log2 fold change": 0.3}
{"SMILES": "O=C(O)CCc1nc(-c2ccccc2)c(-c2ccccc2)o1", "log2 fold change": 0.23}
{"SMILES": "CC(Oc1c(Cl)cccc1Cl)C1=NCCN1 (centres unmarked)", "log2 fold change": 0.09}
{"SMILES": "O=c1c(O[C@@H]2O[C@H](CO)[C@H](O)[C@H](O)[C@H]2O)c(-c2ccc(O)c(O)c2)oc2cc(O)cc(O)c12", "log2 fold change": 0.37}
{"SMILES": "C#C[C@]1(O)CC[C@H]2[C@@H]3CCc4cc(O)ccc4[C@H]3CC[C@@]21C", "log2 fold change": 0.83}
{"SMILES": "COCCOC(=O)C1=C(C)NC(C)=C(C(=O)OC(C)C)C1c1cccc([N+](=O)[O-])c1 (centres unmarked)", "log2 fold change": 0.39}
{"SMILES": "COc1c2occc2cc2ccc(=O)oc12", "log2 fold change": 0.25}
{"data": "Further values, each from its own experiment"}
{"Compound": "CN(C(=O)c1ccn2ncc(-c3ccc(C(N)=O)cc3)c2c1)c1ccc(C#N)cn1", "organism": "Cryptosporidium parvum", "test": "qPCR", "system": "IFN-γ knockout mouse, feces", "conditions": "oral, 10 mg/kg", "endpoint": "oocyst shedding", "value": "4.03 log oocysts/g feces"}
{"note": "Excerpt of the above (study 1):"}
{"SMILES": "CC(C)[C@H](CO)Nc1nc(Nc2cc(N)cc(Cl)c2)c2ncn(C(C)C)c2n1", "remaining activity [%]": 31.9}
{"SMILES": "O=C(Nc1cccc(Nc2cc(Nc3cccc(C(F)(F)F)c3)ncn2)c1)C1CC1", "remaining activity [%]": 94.8}
{"SMILES": "N#CC(C#N)=C(N)/C(C#N)=C/c1ccc(O)cc1", "remaining activity [%]": 96.8}
{"SMILES": "Cc1cccc(-c2[nH]c(C(C)(C)C)nc2-c2ccc3c(c2)OCO3)n1", "remaining activity [%]": 97.6}
{"SMILES": "COc1cc2ncnc(Nc3ccc(Oc4ccccc4)cc3)c2cc1OC", "remaining activity [%]": 98.5}
{"SMILES": "Nc1ncnc2n[nH]c(Nc3ccc(F)cc3)c12", "remaining activity [%]": 104}
{"SMILES": "NCCNc1ncc(C(N)=O)c(Nc2cccc(C(F)(F)F)c2)n1", "remaining activity [%]": 95.3}
